Published values collected from several papers.
Protocols differ between the studies behind these lines. Numbers after ± are the reported error.
Cell line: Caco-2

The IC50 of `COC(=O)C1CN1S(=O)(=O)c1ccc2cc(OC)ccc2c1` (stereo not drawn) is reported as 150 µM (cell growth or viability, MTT; 48 h).
`Cn1ccn(N=Cc2ccccc2SSc2ccccc2C=Nn2ccn(C)c2=S)c1=S` gave an IC50 of 0.37 ± 0.02 µM (cell proliferation, MTT; 72 h).
With `[CH3][Pd-2]([Cl])([N+](=Cc1ccc[nH]1)Cc1ccccc1)[N+](=Cc1ccc[nH]1)Cc1ccccc1` the IC50 was > 100 µg/mL (cell growth or viability, MTT; 24 h).
`CCOC(=O)c1ccc(-n2c(N)c(C#N)c(SC)c(C#N)c2=O)cc1` has an IC50 of 56.2 ± 3.1 µM (cell viability; 24 h).
`COc1cc(O)c2c(c1)O[C@H](c1ccccc1)CC2=O` has an IC50 of 86 µM (cell growth or viability, MTT; 48 h).
With `O=C(CNc1nc(NNC(=O)c2ccc(Nc3nc(Nc4ccc(C(=O)NNc5nc(NCC(=O)NO)nc(N6CCOCC6)n5)cc4)nc(Nc4ccc(C(=O)NNc5nc(NCC(=O)NO)nc(N6CCOCC6)n5)cc4)n3)cc2)nc(N2CCOCC2)n1)NO` the IC50 was 0.0391 µM (cell growth or viability, MTT; 72 h).
`c1ccc(-n2nc(-c3ccccn3)n[n+]2-c2ccccc2)cc1` gave an IC50 of 270 ± 40 µM (cell growth, resazurin).
`O=C1/C(=C(\O)CCc2ccccc2)C(=O)[C@@]2(C(=O)OCc3ccccc3)CS[C@H](c3ccccc3)N12` gave an IC50 of 31.3 µg/mL (cell viability, Alamar Blue).
The IC50 of `O=[N][Fe]1([N]=O)[S](CCO)[Fe]([N]=O)([N]=O)[S]1CCO` is reported as 39.3 µM (cell growth or viability, CCK-8).
For `Oc1ccccc1-c1nn(-c2ccccc2)[n+](-c2ccccc2)n1`, the IC50 was 280 ± 60 µM (cell growth, resazurin).
`O=C1/C(=C(\O)c2ccccc2)C(=O)[C@@]2(C(=O)OC3CCCCC3)CS[C@H](c3ccccc3)N12` has an IC50 of 31.3 µg/mL (cell viability, Alamar Blue).
`O=C(CNc1nc(Cl)nc(NNC(=O)c2ccc(Nc3nc(Nc4ccc(C(=O)NNc5nc(Cl)nc(NCC(=O)NO)n5)cc4)nc(Nc4ccc(C(=O)NNc5nc(Cl)nc(NCC(=O)NO)n5)cc4)n3)cc2)n1)NO` has an IC50 of 0.0215 µM (cell growth or viability, MTT; 72 h).
The IC50 of `O=C1/C(=C(\O)CCc2ccccc2)C(=O)[C@@]2(C(=O)OC3CCCCC3)CS[C@H](c3ccccc3)N12` is reported as 7.81 µg/mL (cell viability, Alamar Blue).
`O=C(O)CNc1nc(O)nc(NNC(=O)c2ccc(Nc3nc(Nc4ccc(C(=O)NNc5nc(O)nc(NCC(=O)O)n5)cc4)nc(Nc4ccc(C(=O)NNc5nc(O)nc(NCC(=O)O)n5)cc4)n3)cc2)n1` has an IC50 of 0.0648 µM (cell growth or viability, MTT; 72 h).
With `CO[C@H]1N(OC)c2ccccc2[C@@]12CN=C(Nc1cc(C(F)(F)F)cc(C(F)(F)F)c1)S2` (relative stereo) the IC50 was 67.4 µM (cell growth or viability, MTS; 72 h).
With `O=C(/C=C(O)/C=C/c1cccs1)/C=C/c1cccs1` the IC50 was 46 µM (cell growth or viability, SRB; 72 h).
`N=C(N)NCCC[C@@H](N)C(=O)N[C@@H](Cc1c[nH]c2ccccc12)C(=O)N[C@@H](CCC(N)=O)C(=O)N[C@@H](Cc1c[nH]c2ccccc12)C(=O)N[C@@H](CCCNC(=N)N)C(=O)N[C@@H](Cc1c[nH]c2ccccc12)C(=O)N[C@@H](CCC(N)=O)C(=O)N[C@@H](Cc1c[nH]c2ccccc12)C(=O)N[C@@H](CCCNC(=N)N)C(N)=O` gave an IC50 of 105 µM (cell growth or viability, MTT).
`NC1=N[N+](=Cc2c3ccccc3cc3ccccc23)[Ga-3]23([S]1)([S]C(N)=N[N+]2=Cc1c2ccccc2cc2ccccc12)[S]C(N)=N[N+]3=Cc1c2ccccc2cc2ccccc12` has an IC50 of 7.7 ± 1.5 µM (48 h).
`[Cl][Pd-2]([Cl])([N+](=Cc1ccc[nH]1)Cc1ccco1)[N+](=Cc1ccc[nH]1)Cc1ccco1` has an IC50 of > 100 µg/mL (cell growth or viability, MTT; 24 h).
For `O=C(O)CNc1nc(NCC(=O)O)nc(NNC(=O)c2ccc(Nc3nc(Nc4ccc(C(=O)NNc5nc(NCC(=O)O)nc(NCC(=O)O)n5)cc4)nc(Nc4ccc(C(=O)NNc5nc(NCC(=O)O)nc(NCC(=O)O)n5)cc4)n3)cc2)n1`, the IC50 was 0.0033 µM (cell growth or viability, MTT; 72 h).
With `c1ccc(-c2nn(-c3ccccn3)[n+](-c3ccccc3)n2)cc1` the IC50 was 13 ± 2 µM (cell growth, resazurin).

A few entries again:
For `Oc1ccccc1-c1nn(-c2ccccc2)[n+](-c2ccccc2)n1`, the IC50 was 280 ± 60 µM (cell growth, resazurin).
The IC50 of `O=C1/C(=C(\O)CCc2ccccc2)C(=O)[C@@]2(C(=O)OC3CCCCC3)CS[C@H](c3ccccc3)N12` is reported as 7.81 µg/mL (cell viability, Alamar Blue).
